Published values from different studies.
Every numbered part comes from another study and shows a few of its results, in no order. Positions count from the first letter of the parent shown.

Set 1 — Variant: D95E; method: DHFR PCA, deep sequencing; sample: yeast; reference: wild-type fitted maximum; reading: higher = stronger binding
Target: ABI1, truncated, D143A, DHFR fusion (Arabidopsis thaliana)
Notes: methotrexate growth selection, single substitutions
Starting sequence: PYL1, truncated, DHFR fusion (Arabidopsis thaliana); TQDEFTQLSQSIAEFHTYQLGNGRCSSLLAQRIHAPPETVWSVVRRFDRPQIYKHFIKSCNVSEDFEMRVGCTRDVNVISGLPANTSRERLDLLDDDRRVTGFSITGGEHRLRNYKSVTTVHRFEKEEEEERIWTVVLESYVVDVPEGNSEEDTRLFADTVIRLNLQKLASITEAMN
| conditions | relative binding score [%] |
| --- | --- |
| together with: (+)-ABA 2500 µM | 102 |
| together with: (+)-ABA 0 µM | -12.3 |
| together with: (+)-ABA 0.39 µM | 11.2 |
| together with: (+)-ABA 710 µM | 92.2 |
| together with: (+)-ABA 0.11 µM | -1.57 |
| together with: (+)-ABA 200 µM | 62.7 |

Set 2 — target: CCND2, cyclin fold, Cln2 fusion (human); method: yeast growth competition, sequencing; sample: yeast; notes: weak parent motif; reference: not given; reading: higher = stronger binding
Starting sequence: PKN2 docking peptide (human); VSAVQKLDFSDTM
| Variant | normalised enrichment score |
| --- | --- |
| K6P | 0.0179 |
| S10N | 0.622 |
| S10Q | 0.061 |
| S2M | 0.566 |
| S2C | 0.543 |
| S2Q | 0.793 |
| S10V | 0.425 |
| L7I | 0.226 |

Mixed results
| Substance | target | test | system | conditions | quantity | value |
| --- | --- | --- | --- | --- | --- | --- |
| SLVAIHLAC | HLA class I histocompatibility antigen, A alpha chain, allele A*25:01 (Homo sapiens, UniProt P04439) | peptide-MHC binding | peptide | concentration not given | binding | inactive |
| CNC(=O)c1cc(C(=O)NC2CC2)cn(Cc2ccccc2)c1=O | D(1B) dopamine receptor (DRD5, Homo sapiens, UniProt P21918) | binding, radioligand binding |  | 10 µM | inhibition | 18.6% |

A few entries again (mixed results):
| Substance | target | test | system | conditions | quantity | value |
| --- | --- | --- | --- | --- | --- | --- |
| CNC(=O)c1cc(C(=O)NC2CC2)cn(Cc2ccccc2)c1=O | D(1B) dopamine receptor (DRD5, Homo sapiens, UniProt P21918) | binding, radioligand binding |  | 10 µM | inhibition | 18.6% |
| SLVAIHLAC | HLA class I histocompatibility antigen, A alpha chain, allele A*25:01 (Homo sapiens, UniProt P04439) | peptide-MHC binding | peptide | concentration not given | binding | inactive |
